Assay results collected from several papers.
Lines come from different studies, so protocols differ. ± marks the error that the study gave.

SMILES | target or system | assay | system | conditions | how to read | measurement | result
O=C1NCC(Cc2ccccc2)N(CC2CCCN2CC(CC2CCCCC2)N2CC(Cc3ccc(O)cc3)N(CCc3ccccc3)C(=O)C2=O)C1=O (stereo not shown) | WM 266-4 | annexin V flow cytometry | – | 100 µM, 48 h, together with: Z-VAD-FMK 10 µM | – | late apoptotic cells | 27%
O=C1CCN(Cc2ccccc2)CC1C(C[N+](=O)[O-])c1ccccc1 (stereo not shown) | – | tail immersion test | BALB/c mice | ip, 25 mg/kg, 0.75 h | – | tail flick response | 26.4%
COc1cc(CCC(C)=O)ccc1O | mAb 5-3H1 | antibody binding, indirect competitive ELISA | – | together with: coating antigen 5-OVA | – | IC50 | > 4 µg/mL
C=C(C)[C@@H]1CC[C@]2(C(=O)OCO/N=[N+](\[O-])N3CCCC3)CC[C@]3(C)[C@H](CC[C@@H]4[C@@]5(C)CC[C@H](OC(C)=O)C(C)(C)[C@@H]5CC[C@]43C)[C@@H]12 | B16-F10 | PI flow cytometry | – | 0.25 µM | – | cells in S phase | 40.9%
N=C(N)NCCC[C@H](NC(=O)[C@H](Cc1c[nH]c2ccccc12)NC(=O)[C@H](CCC(N)=O)NC(=O)[C@H](Cc1c[nH]c2ccccc12)NC(=O)[C@H](CCCNC(=N)N)NC(=O)[C@H](Cc1c[nH]c2ccccc12)NC(=O)[C@H](CCC(N)=O)NC(=O)[C@H](Cc1c[nH]c2ccccc12)NC(=O)[C@@H](N)CCCNC(=N)N)C(N)=O | MCF7 | – | – | – | relative to: erythrocyte IC50 over MCF7 IC50 | selectivity ratio | > 1.7
CCCCC/C=C/C(=O)CCc1ccc(O)c(OC)c1 | mouse mAb 1-F12 | antibody binding, indirect competitive ELISA | – | together with: coating antigen 3-OVA | – | IC50 | > 4 µg/mL
COc1cc(CNC(=O)C[C@H](C)CCC=C(C)C)ccc1OCc1cn(-c2ccc(Cl)cc2Cl)nn1 | RPMI-8226 leukaemia cells | SRB | – | 10 µM, 48 h | – | growth percent | 90.7%
C[n+]1c(/C=C/c2ccc(N(c3ccccc3)c3ccccc3)cc2)cc(/C=C2\Sc3ccccc3N2CCCN2CCCC2)c2ccccc21 | MCF7 | Western blot | – | concentration not given, 36 h | – | γ-H2AX and 53BP1 levels | increased
COc1cc(CNC(=O)C[C@H](C)CCC=C(C)C)ccc1OCc1cn(-c2ccc([N+](=O)[O-])cc2)nn1 | A498 | SRB | – | 10 µM, 48 h | – | growth percent | 92.6%
N=C(N)NCCC[C@@H]1NC(=O)[C@H](CCCCNC(=O)CNC(=O)CNC(=O)CNC(=O)CC[C@H](NC(=O)CNC(=O)CNC(=O)CNC(=O)CN2CCN(CC(=O)O)CCN(CC(=O)O)CCN(CC(=O)O)CC2)C(=O)NCC(=O)NCC(=O)NCC(=O)NCCCC[C@@H]2NC(=O)[C@@H](Cc3ccccc3)NC(=O)[C@H](CC(=O)O)NC(=O)CNC(=O)[C@H](CCCNC(=N)N)NC2=O)NC(=O)[C@@H](Cc2ccccc2)NC(=O)[C@H](CC(=O)O)NC(=O)CNC1=O [indium-111 labelled] | – | – | female athymic nu/nu mice, eyes | intravenous, 72 h | – | tissue uptake | 0.16 ± 0.03 %ID/g
COc1cc(CNC(=O)C[C@H](C)CCC=C(C)C)ccc1O | SF-539 CNS cancer cells | SRB | – | 10 µM, 48 h | – | growth percent | 93.6%
COc1ccc([C@@H]2CC(=O)c3c(O)cc(O[C@@H]4O[C@H](CO[C@@H]5O[C@@H](C)[C@H](O)[C@@H](O)[C@H]5O)[C@@H](O)[C@H](O)[C@H]4O)cc3O2)cc1O | A549 | cell growth or viability, MTS | – | 150 µg/mL, 24 h | – | viability | 49.9%
Cn1ncc2cc(-c3cncc(Cl)c3N3CCC4(CCNC4=O)CC3)ccc21 | LS174T | TCF/LEF luciferase reporter, inhibitor | – | WNT pathway | – | IC90 | 0.715 µM
CC(=O)[O-].O.O.O.O.[Mn+2].[O-]c1ccc(Br)cc1C=NCCN1CCOCC1 | Chromobacterium violaceum | – | – | 20 µL of 100 µM per disc | – | inhibition zone diameter | 17 mm
COc1cc(CNC(=O)C[C@H](C)CCC=C(C)C)ccc1OCc1cn(-c2ccc(C#N)cc2)nn1 | SF-539 CNS cancer cells | SRB | – | 10 µM, 48 h | – | growth percent | 59.7%
[64Cu+2].c1ccc(CNCc2ccc(CN3CCCN4CCNCCCN(CC4)CC3)cc2)nc1 | CXCR4 | – | NOD/SCID mouse, U87 and U87-stb-CXCR4 xenografts | iv, 90 min, no blocking dose | relative to: U87-stb-CXCR4 tumour over muscle | tumour-to-muscle ratio | 61.1 ± 16.9

SMILES | target or system | assay | system | conditions | how to read | measurement | result
COc1cc(CNC(=O)C[C@H](C)CCC=C(C)C)ccc1OCc1cn(-c2ccc(Br)cc2)nn1 | SK-MEL-2 melanoma cells | SRB | – | 10 µM, 48 h | – | growth percent | 78%
[64Cu+2].c1cnc(CNCc2ccc(CN3CCCN4CCNCCCN(CC4)CC3)cc2)nc1 | CXCR4 | – | NOD/SCID mouse, U87 and U87-stb-CXCR4 xenografts | iv, 90 min, no blocking dose | relative to: U87 tumour over blood | tumour-to-tissue ratio | 4.13 ± 1.8
CC(=O)OC[C@H]1O[C@@H](Sc2sc(C(=O)c3ccc(Br)cc3)c(N)c2-c2nc3ccccc3s2)[C@H](OC(C)=O)[C@@H](OC(C)=O)[C@H]1OC(C)=O | SK-MEL-2 | SRB | – | 10 µM, 48 h | relative to: untreated | growth | 112%
O=Cc1c(O)ccc2ccccc12 | HUVEC | RNA sequencing, measured: EXO1 | – | 75 µM, 24 h | relative to: DMSO | log2 fold change | -3.3
CC(C)CC(CC(C)C)NC(=O)[C@H](Cc1c[nH]cn1)NC(=O)CNC(=O)[C@@H](NC(=O)[C@H](C)NC(=O)[C@H](Cc1c[nH]c2ccccc12)NC(=O)[C@H](CCC(N)=O)NC(=O)[C@@H](Cc1ccccc1)NC(=O)COCC(=O)Nc1ccc(CNC(=O)CN2CCN(CC(=O)O)CCN(CC(=O)O)CCN(CC(=O)O)CC2)cc1)C(C)C [lutetium-177 labelled] | PC-3, docetaxel pretreated | SRB assay after 6 days | – | 50 MBq, 1 h, 37 °C | relative to: medium-treated | cell density | 81.2 ± 12.6%
Cc1cc(Cl)ccc1OCCCC(=O)NO | Lucilia cuprina | larval weight gain | LS strain, larvae on impregnated cotton wool | 24 h | – | IC50 | > 1000 µg
N=C(N)NCCC[C@@H]1NC(=O)[C@H](Cc2c[nH]c3ccccc23)NC(=O)[C@@H](CC2CCCCC2)NC(=O)[C@@H]2CCCN2C(=O)[C@@H](NC(=O)CCc2ccccc2)CCCNC1=O | – | two-compartment model | C57BL/6J mice, brain | oral, 1 mg/kg | – | alpha rate constant | 2.88 h⁻¹
CC(C)=CCCC(C)=CCc1cc(-c2coc3cc(OC4OC(C(=O)O)C(O)C(O)C4O)ccc3c2=O)ccc1O (stereo not shown) | – | glucuronidation, substrate | monkey liver microsomes | – | – | substrate inhibition Ki | 5.5 ± 1.47 µM
COc1ccc(NC(=O)CCc2nc3cc(Cl)ccc3[nH]c2=O)cc1 | MCF7 | annexin V-FITC | – | concentration not given | – | necrotic cells | 12.7%
CCN(CC)CCNC(=S)Nc1ccc2nc(N3CCN(CC)CC3)cc(C)c2c1 | BCR-ABL1+ BRCA1-deficient 32Dcl3 | measured: GFP-RAD52 foci | – | 2.5 µM, together with: cisplatin | – | foci-positive cells | 17 ± 1%
CC(=O)OC[C@H]1O[C@@H](Sc2sc(C(=O)c3ccc(C)cc3)c(N)c2-c2nc3ccccc3s2)[C@H](OC(C)=O)[C@@H](OC(C)=O)[C@H]1OC(C)=O | BT-549 | SRB | – | 10 µM, 48 h | relative to: untreated | growth | 82.7%
COc1cc(CNC(=O)C[C@H](C)CCC=C(C)C)ccc1OCc1cn(-c2ccc(F)cc2)nn1 | SK-MEL-2 melanoma cells | SRB | – | 10 µM, 48 h | – | growth percent | 84.6%
CN1CCC(N[C@@H]2CCc3[nH]c4c(C(N)=O)ccc(-c5ccccc5Cl)c4c3C2)CC1 | HCT-116 p53 knock-out | annexin V-FITC/PI | – | 50 nM | – | increase in apoptotic cells | 14.1%
COc1cc(CNC(=O)C[C@H](C)CCC=C(C)C)ccc1OCc1cn(-c2ccc(Cl)c(Cl)c2)nn1 | SF-539 CNS cancer cells | SRB | – | 10 µM, 48 h | – | growth percent | 5.3%
CN1CCC2(CC1)C/C(=N\NC(=O)Nc1ccccc1)c1ccccc1O2 | MCF7 | PI staining, flow cytometry | – | concentration not given, %S | – | cell cycle distribution | 43.2%

For quick reference, copied from above:
SMILES | target or system | assay | system | conditions | how to read | measurement | result
Cc1cc(Cl)ccc1OCCCC(=O)NO | Lucilia cuprina | larval weight gain | LS strain, larvae on impregnated cotton wool | 24 h | – | IC50 | > 1000 µg
COc1cc(CNC(=O)C[C@H](C)CCC=C(C)C)ccc1O | SF-539 CNS cancer cells | SRB | – | 10 µM, 48 h | – | growth percent | 93.6%
